Assay results gathered from unrelated publications.
Every numbered part comes from another study and shows a few of its results, in no order.
UniProt P42336, sequence (whole entry, unmodified, looked up): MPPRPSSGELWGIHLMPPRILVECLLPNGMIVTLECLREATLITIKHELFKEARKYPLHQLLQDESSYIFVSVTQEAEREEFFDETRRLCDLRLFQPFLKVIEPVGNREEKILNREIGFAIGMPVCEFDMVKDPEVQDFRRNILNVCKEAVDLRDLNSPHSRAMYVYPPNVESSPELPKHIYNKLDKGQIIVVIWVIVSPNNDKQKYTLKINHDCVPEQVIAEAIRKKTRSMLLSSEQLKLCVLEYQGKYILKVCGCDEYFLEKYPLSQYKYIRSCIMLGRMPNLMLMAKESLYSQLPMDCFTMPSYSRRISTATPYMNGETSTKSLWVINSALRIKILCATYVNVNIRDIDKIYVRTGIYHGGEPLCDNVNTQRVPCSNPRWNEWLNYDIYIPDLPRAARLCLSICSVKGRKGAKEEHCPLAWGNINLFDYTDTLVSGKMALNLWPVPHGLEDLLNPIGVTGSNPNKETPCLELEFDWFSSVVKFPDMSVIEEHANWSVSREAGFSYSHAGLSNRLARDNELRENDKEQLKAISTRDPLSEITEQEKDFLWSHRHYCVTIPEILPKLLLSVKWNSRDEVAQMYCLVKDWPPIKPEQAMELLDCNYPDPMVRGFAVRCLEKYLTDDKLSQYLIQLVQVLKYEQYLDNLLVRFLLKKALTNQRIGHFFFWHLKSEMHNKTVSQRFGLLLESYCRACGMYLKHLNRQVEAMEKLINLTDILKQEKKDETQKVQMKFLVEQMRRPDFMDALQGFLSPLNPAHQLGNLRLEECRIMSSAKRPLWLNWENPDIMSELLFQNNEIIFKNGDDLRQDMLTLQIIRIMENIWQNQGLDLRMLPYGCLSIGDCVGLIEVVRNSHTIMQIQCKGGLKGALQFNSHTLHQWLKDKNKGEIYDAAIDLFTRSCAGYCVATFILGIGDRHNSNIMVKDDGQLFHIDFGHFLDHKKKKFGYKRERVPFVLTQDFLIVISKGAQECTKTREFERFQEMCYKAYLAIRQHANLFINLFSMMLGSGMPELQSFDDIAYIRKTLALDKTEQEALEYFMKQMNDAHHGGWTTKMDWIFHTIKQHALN
UniProt P80192, sequence (whole entry, looked up): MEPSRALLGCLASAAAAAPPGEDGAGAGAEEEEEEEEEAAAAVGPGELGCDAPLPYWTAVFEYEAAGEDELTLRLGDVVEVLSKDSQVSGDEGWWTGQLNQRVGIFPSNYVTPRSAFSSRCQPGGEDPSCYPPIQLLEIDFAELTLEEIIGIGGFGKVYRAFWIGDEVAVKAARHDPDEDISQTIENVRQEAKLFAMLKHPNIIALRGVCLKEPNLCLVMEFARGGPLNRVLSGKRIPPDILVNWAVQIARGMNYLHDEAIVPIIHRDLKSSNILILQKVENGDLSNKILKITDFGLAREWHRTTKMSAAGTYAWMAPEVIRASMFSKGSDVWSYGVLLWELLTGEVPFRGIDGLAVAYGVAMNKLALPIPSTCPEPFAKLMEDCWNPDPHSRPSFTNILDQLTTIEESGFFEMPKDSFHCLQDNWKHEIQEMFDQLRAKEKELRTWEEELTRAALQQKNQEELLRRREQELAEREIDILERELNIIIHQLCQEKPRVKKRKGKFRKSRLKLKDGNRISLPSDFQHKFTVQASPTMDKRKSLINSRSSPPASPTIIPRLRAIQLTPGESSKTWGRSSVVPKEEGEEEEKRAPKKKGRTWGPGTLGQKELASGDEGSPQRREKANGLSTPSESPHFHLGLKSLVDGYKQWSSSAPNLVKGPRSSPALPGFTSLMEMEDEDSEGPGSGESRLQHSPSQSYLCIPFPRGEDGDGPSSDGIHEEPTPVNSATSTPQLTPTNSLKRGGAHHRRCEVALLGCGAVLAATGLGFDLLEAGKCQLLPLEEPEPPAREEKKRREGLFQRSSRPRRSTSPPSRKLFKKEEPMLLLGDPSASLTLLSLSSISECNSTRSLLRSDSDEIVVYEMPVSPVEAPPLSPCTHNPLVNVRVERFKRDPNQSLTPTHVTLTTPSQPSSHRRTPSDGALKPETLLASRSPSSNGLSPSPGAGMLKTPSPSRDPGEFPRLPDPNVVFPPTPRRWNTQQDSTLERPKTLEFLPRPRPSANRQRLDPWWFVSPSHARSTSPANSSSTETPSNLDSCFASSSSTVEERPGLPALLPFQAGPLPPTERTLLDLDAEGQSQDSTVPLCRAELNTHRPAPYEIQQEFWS
UniProt Q96PN8, sequence (whole entry, looked up): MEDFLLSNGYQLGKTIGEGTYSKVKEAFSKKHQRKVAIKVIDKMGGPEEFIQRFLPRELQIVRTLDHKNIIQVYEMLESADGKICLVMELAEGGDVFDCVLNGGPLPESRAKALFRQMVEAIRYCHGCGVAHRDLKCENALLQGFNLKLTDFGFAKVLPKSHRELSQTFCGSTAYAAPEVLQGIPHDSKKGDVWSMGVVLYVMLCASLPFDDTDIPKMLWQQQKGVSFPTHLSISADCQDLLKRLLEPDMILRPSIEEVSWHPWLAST
UniProt P11802, sequence (whole entry, looked up): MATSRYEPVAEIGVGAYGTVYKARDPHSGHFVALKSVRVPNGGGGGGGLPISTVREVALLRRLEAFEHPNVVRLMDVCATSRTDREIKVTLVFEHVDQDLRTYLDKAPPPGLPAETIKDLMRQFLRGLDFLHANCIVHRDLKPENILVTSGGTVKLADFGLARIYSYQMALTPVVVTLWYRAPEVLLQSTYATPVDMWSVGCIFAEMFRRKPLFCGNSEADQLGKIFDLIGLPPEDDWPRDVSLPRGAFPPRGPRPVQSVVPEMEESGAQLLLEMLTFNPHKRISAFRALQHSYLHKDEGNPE
UniProt P53778, sequence (whole entry, looked up): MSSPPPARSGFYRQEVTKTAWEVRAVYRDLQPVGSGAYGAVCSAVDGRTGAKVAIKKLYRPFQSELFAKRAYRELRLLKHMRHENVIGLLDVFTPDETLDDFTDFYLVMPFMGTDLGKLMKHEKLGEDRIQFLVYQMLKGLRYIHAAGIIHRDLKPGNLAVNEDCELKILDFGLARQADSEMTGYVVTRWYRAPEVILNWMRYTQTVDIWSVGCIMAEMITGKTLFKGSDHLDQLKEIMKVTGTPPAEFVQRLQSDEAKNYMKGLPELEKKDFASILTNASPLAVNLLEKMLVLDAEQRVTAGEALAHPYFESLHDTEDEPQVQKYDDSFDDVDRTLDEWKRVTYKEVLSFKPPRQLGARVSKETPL
UniProt Q9UHD2, sequence (whole entry, looked up): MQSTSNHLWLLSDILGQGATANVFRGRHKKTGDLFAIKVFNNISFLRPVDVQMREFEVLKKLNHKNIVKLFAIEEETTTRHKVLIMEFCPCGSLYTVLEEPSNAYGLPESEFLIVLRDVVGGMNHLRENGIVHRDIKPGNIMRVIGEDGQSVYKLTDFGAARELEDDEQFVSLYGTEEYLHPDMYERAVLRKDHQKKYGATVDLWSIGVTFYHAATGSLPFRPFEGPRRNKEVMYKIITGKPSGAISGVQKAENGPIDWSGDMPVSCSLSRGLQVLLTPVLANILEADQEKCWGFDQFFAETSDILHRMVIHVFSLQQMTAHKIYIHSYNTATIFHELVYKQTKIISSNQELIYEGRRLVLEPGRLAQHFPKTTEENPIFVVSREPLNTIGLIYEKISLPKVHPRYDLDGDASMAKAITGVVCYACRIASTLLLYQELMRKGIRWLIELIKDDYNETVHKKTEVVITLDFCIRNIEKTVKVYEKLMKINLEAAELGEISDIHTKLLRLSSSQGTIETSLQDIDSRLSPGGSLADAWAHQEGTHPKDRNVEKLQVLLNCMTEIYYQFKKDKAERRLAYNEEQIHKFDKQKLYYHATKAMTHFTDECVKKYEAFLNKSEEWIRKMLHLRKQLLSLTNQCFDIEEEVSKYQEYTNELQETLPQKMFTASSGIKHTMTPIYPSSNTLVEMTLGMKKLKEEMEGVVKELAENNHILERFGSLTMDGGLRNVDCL
UniProt P51955, sequence (whole entry, looked up): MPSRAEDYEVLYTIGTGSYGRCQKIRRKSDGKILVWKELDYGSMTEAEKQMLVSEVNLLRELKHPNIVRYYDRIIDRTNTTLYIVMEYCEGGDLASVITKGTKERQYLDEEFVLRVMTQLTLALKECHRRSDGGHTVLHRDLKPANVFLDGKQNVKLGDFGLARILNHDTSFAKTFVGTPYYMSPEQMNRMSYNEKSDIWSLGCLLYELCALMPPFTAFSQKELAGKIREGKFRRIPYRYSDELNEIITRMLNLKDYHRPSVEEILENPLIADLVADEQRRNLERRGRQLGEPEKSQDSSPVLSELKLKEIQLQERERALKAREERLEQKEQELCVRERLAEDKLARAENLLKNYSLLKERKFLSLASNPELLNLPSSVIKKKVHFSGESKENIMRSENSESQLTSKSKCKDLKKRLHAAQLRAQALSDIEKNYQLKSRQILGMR

Set 1
SMILES: CCc1ccccc1C(=O)Nc1n[nH]c2c(C)c(F)c(C3C(C#N)=C(C)N(C)C(C)=C3C#N)cc12
Technique: competition with immobilised ligand
Concentration: 1 µM
target	test	remaining binding [%]
TBK1 (Homo sapiens, UniProt Q9UHD2)	cell-free assay	77
PIK3CA (Homo sapiens, UniProt P42336, C420R)	cell-free assay	100
EPHB4 (Homo sapiens, UniProt P54760)	cell-free assay	51
FGFR3 (Homo sapiens, UniProt P22607, G697C)	cell-free assay	74
PRKAA2 (Homo sapiens, UniProt P54646)	cell-free assay	0
CASK (Homo sapiens, UniProt O14936)	cell-free assay	81
NEK1 (Homo sapiens, UniProt Q96PY6)	cell-free assay	100
HUNK (Homo sapiens, UniProt P57058)	cell-free assay	100
PRKCH (Homo sapiens, UniProt P24723)	cell-free assay	32
TSSK3 (Homo sapiens, UniProt Q96PN8)	cell-free assay	100
PHKG1 (Homo sapiens, UniProt Q16816)	cell-free assay	44
MAPK14 (Homo sapiens, UniProt Q16539)	cell-free assay	100
MAPK7 (Homo sapiens, UniProt Q13164)	cell-free assay	86
MAP3K9 (Homo sapiens, UniProt P80192)	cell-free assay	92
Ribosomal protein S6 kinase alpha-1, N-terminal kinase domain (RPS6KA1, Homo sapiens, UniProt Q15418)	cell-free assay	1.8
Tyrosine-protein kinase ABL1, phosphorylated (ABL1, Homo sapiens, UniProt P00519, E255K)	binding	88
CLK3 (Homo sapiens, UniProt P49761)	cell-free assay	100
MAST1 (Homo sapiens, UniProt Q9Y2H9)	cell-free assay	100
MAPK12 (Homo sapiens, UniProt P53778)	cell-free assay	76
MAP3K13 (Homo sapiens, UniProt O43283)	cell-free assay	100
EGFR (Homo sapiens, UniProt P00533)	cell-free assay	85
RPS6KB1 (Homo sapiens, UniProt P23443)	cell-free assay	80
PIK3C2G (Homo sapiens, UniProt O75747)	binding	95

Set 2
Target: Sal-like protein 4, full length isoform B (SALL4, Homo sapiens, UniProt Q9UJQ4-2, residues 1-616)
Technique: universal PBM
Molecule type: double-stranded DNA, one strand shown
Medium: in vitro
Concentration: not given
Setting: 8-mer, flanks averaged, mean of replicates
Direction: higher = stronger binding
Strand	E-score
CGTGTGTA	0.165
AAGACTGG	-0.00181
AACGCGGC	-0.263
CATCCCAC	-0.242
AATTTTGT	0.32
AATGCTAA	0.166
ATGATCAA	0.266
ACGTCCAA	0.027

Set 3
Target: Histone acetyltransferase KAT6A, winged helix 1, GST fusion (KAT6A, Homo sapiens, UniProt Q92794, residues 1-85)
Technique: protein binding microarray
Molecule type: double-stranded DNA, one strand shown
Medium: in vitro
Concentration: not given
Setting: 8-mer, flanks averaged, mean of 2 arrays, mostly near background
Baseline: not given
Direction: higher = stronger binding
Residues (chain): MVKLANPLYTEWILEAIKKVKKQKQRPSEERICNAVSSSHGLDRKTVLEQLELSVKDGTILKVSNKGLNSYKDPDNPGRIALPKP
Strand	E-score
CGACTCAC	0.0532
ATACCATG	-0.108
ATATTGCA	-0.2
AGGGCCCA	-0.238
CACACTAG	0.0731
AGGAGCAG	-0.0731
ACCTTAGA	-0.0409
AGGGGGTA	-0.208

Set 4
SMILES: CCCCc1c(-c2ccc(O)cc2)[nH]c2nccnc12
Observed: enzyme activity
Mode: inhibitor
Concentration: 0.5 µM
Baseline: control
target	remaining activity [%]
DAPK2 (Homo sapiens, UniProt Q9UIK4)	101
Cyclin-dependent kinase 4, with cyclin D1 (CDK4, Homo sapiens, UniProt P11802)	66.4
NEK2 (Homo sapiens, UniProt P51955)	106
Tyrosine-protein kinase Lyn, isoform B (LYN, Homo sapiens, UniProt P07948)	106
MAPK9 (Homo sapiens, UniProt P45984)	90.2

Set 5
Target: Eukaryotic initiation factor 4A-I (EIF4A1, Homo sapiens, UniProt P60842, residues 1-406, full length assumed)
UniProt P60842, sequence (whole entry, looked up): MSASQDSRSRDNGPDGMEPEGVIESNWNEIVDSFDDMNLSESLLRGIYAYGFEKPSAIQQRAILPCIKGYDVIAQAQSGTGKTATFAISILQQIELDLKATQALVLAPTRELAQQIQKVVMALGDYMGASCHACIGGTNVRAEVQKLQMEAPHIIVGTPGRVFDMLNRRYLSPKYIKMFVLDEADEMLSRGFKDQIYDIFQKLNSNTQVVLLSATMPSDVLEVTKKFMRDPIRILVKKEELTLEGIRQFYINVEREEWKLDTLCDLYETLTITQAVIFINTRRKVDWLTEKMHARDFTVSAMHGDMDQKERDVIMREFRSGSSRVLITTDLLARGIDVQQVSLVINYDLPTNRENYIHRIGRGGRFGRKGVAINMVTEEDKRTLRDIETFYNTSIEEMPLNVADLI
Technique: RNA Bind-n-Seq
Molecule type: RNA
Medium: in vitro
Concentration: 90 pmol
Setting: 4-mer, random 30-nt RNA, single round
Added: 3 µM DMDA-PatA, 2 mM ADP, 2 mM phosphate
Baseline: input library
Direction: higher = stronger binding
Strand	4-mer enrichment
GUAU	1.12 fold
GACU	0.674 fold
UCAG	0.883 fold
AAUA	1.03 fold
UUCG	0.696 fold
GUCA	0.761 fold
GGAC	0.691 fold
GUCU	0.685 fold
